Measured values from different studies.
Every numbered part comes from another study and shows a few of its results, in no order.
Sequence of UniProt Q9Y616 (whole entry, looked up): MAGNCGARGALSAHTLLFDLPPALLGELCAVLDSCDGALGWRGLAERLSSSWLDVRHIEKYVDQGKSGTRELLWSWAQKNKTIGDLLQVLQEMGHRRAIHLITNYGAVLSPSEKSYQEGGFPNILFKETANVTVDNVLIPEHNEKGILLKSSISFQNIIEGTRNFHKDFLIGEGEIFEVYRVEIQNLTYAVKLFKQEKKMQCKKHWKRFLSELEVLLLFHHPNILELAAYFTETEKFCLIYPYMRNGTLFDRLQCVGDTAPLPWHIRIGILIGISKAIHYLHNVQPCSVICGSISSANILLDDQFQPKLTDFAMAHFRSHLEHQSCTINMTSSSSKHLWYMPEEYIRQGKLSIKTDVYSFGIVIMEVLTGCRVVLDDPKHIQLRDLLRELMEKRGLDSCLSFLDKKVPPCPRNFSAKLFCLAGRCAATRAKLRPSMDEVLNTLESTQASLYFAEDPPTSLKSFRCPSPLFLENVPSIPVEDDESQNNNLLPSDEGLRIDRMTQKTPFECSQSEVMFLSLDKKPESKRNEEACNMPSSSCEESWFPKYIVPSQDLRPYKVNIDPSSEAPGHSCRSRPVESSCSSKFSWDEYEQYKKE
Sequence of UniProt P20794 (whole entry, looked up): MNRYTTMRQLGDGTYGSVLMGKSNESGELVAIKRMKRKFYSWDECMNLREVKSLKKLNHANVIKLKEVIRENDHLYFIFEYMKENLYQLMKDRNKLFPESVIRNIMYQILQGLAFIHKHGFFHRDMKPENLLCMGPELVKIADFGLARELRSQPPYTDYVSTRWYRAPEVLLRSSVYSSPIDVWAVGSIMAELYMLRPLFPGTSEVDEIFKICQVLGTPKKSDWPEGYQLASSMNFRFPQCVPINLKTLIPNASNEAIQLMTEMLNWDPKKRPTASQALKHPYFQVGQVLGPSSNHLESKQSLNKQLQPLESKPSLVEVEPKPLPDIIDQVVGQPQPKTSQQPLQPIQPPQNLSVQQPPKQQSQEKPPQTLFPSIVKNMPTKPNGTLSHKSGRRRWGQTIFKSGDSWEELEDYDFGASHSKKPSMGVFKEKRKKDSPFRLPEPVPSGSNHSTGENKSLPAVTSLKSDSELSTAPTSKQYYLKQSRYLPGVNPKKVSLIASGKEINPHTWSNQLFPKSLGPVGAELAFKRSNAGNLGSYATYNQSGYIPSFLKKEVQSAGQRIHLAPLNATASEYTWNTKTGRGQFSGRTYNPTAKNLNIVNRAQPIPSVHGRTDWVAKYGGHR
Sequence of UniProt Q15208 (whole entry, looked up): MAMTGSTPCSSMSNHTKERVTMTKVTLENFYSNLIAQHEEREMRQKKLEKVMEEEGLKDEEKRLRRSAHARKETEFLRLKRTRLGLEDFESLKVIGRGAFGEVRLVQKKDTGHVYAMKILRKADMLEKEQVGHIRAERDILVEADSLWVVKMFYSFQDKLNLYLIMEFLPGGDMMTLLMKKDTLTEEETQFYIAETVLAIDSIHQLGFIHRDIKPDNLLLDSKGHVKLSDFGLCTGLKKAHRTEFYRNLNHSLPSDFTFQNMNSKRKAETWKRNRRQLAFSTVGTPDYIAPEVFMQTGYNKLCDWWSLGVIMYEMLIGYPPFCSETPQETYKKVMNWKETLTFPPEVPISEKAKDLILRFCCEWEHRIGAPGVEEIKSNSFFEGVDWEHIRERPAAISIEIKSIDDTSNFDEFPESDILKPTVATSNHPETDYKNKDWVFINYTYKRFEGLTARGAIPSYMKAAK
Sequence of UniProt P49760 (whole entry, looked up): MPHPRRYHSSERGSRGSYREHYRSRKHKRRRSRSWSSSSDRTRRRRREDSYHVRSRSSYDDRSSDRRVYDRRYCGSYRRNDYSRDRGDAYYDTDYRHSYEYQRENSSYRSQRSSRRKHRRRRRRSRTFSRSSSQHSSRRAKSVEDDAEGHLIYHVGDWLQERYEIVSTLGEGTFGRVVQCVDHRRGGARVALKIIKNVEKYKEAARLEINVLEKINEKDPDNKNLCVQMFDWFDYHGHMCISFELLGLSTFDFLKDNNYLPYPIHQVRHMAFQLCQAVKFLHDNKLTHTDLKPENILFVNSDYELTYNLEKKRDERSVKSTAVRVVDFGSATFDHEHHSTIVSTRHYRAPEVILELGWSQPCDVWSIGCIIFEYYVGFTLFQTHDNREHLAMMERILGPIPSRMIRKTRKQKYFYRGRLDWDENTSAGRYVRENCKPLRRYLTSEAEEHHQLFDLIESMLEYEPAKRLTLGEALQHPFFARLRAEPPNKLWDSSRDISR
Sequence of UniProt Q13164 (whole entry, looked up): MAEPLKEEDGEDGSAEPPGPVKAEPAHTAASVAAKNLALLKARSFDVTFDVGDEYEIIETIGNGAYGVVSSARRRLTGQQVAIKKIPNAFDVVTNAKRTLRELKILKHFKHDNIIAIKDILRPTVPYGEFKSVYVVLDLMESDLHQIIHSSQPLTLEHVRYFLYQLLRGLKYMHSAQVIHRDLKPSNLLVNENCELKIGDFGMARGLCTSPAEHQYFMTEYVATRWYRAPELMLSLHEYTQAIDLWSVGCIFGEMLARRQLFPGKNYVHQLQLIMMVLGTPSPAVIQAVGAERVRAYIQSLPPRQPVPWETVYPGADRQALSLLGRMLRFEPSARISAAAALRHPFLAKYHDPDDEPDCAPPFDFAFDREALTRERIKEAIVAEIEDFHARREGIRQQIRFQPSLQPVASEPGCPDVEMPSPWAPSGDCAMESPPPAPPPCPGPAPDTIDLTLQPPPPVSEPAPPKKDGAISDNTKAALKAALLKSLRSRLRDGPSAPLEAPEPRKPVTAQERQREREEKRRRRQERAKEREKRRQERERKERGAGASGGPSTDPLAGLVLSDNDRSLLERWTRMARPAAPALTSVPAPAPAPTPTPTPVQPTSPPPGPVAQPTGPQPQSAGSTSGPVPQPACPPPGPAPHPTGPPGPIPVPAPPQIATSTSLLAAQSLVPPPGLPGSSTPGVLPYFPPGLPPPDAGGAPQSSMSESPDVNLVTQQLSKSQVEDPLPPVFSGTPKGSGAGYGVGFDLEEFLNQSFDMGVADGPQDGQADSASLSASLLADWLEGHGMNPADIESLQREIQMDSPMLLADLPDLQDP
Sequence of UniProt Q96Q40 (whole entry, looked up): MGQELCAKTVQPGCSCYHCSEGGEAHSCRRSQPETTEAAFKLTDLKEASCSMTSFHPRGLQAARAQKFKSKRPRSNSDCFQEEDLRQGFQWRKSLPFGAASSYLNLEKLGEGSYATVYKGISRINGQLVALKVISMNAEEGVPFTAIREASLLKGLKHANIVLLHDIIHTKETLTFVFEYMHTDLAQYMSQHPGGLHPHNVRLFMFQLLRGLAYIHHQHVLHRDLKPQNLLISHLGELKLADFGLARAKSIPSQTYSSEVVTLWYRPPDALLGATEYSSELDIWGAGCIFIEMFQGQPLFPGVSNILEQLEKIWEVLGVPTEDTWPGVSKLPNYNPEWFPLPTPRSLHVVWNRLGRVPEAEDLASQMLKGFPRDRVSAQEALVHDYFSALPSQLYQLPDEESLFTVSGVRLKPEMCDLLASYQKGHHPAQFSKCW
Sequence of UniProt P36894 (whole entry, looked up): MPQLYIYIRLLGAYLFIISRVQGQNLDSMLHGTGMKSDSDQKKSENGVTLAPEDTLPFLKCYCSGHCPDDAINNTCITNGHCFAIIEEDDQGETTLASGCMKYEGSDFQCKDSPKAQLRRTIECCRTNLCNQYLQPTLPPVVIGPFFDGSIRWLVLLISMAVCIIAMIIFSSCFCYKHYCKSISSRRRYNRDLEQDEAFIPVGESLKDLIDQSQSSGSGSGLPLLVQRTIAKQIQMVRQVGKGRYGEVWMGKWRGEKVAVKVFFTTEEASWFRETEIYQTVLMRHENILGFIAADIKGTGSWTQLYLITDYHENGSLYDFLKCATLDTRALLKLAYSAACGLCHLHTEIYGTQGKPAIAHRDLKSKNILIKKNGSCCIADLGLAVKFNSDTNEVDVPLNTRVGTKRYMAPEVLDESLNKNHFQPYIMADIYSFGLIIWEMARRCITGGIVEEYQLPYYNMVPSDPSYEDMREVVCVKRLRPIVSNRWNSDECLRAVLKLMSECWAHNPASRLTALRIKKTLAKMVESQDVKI

Set 1
Target: Calcium/calmodulin-dependent protein kinase type II subunit alpha (CAMK2A, Homo sapiens, UniProt Q9UQM7)
Sequence of UniProt Q9UQM7 (whole entry, looked up): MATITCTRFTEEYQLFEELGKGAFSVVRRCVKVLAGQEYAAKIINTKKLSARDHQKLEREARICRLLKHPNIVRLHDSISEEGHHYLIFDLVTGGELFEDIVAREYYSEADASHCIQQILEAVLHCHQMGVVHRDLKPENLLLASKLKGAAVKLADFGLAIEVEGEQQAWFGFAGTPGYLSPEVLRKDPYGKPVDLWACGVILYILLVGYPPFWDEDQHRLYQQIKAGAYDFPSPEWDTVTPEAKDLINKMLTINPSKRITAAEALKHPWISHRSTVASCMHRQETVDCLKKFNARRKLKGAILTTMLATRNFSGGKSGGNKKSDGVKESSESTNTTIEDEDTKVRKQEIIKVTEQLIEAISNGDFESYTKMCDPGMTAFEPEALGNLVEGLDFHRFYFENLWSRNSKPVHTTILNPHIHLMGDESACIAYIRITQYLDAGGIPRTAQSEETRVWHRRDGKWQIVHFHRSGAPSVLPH
Effect on: enzyme activity
Mode: inhibitor
Tested at: 10 µM
Measurement: inhibition
CN(C)C(=O)C(CCN1CCC(O)(c2ccc(Cl)cc2)CC1)(c1ccccc1)c1ccccc1: -11%
Cn1cnc2c(F)c(Nc3ccc(Br)cc3F)c(C(=O)NOCCO)cc21: -9%
O=C1N[C@@H](Cc2ccccc2)C(=O)N2CCC[C@@H]12: -53%
CCCC(N)C(=O)O (racemic): -13%
CN(C)CCC=C1c2ccccc2C=Cc2ccccc21: -3%
Cc1ccc(C(C)C)c(O)c1: -8%

Set 2
Compound: CNCc1ccccc1-c1csc([C@H](C)Nc2nc(C)nc3cc(OC)c(OC)cc23)c1
Effect on: cell-free assay
Method: competition with immobilised ligand
Tested at: 1 µM
Measurement: remaining binding
IRAK3 (Homo sapiens, UniProt Q9Y616): 83%
MAK (Homo sapiens, UniProt P20794): 97%
CDK15 (Homo sapiens, UniProt Q96Q40): 100%
BMPR1A (Homo sapiens, UniProt P36894): 100%
CLK2 (Homo sapiens, UniProt P49760): 100%
MAPK7 (Homo sapiens, UniProt Q13164): 100%
Macrophage colony-stimulating factor 1 receptor, autoinhibited (CSF1R, Homo sapiens, UniProt P07333): 100%
STK38 (Homo sapiens, UniProt Q15208): 87%

Set 3
Host: human
Sample: microsomes or S9
Tested at: 2 µM
Time: 0.5 h
Measurement: remaining compound
Fc1ccc(Nc2c(-c3ccccc3)nc3ccccn23)cc1: 70.3%
O=c1[nH]nc2c3c(nc(-c4ccncc4)n12)CCCC3: 79.6%
CN(C)c1ccc(S(=O)(=O)c2ccc(Cl)cc2)cc1: 0.872%
O=C(Nc1n[nH]c2cc(Br)ccc12)c1[nH]nc2c1CCCC2: 0.0238%
COc1ccc(N2CC(C(=O)N3CCc4cc(-c5ccno5)ccc43)CC2=O)cc1 (stereo not shown): 73.3%
COCCn1cc2c3c(cccc31)CN(C(=O)Nc1ccccc1C(F)(F)F)CC2: 4.45%
COc1cc2c(cc1OC)C1(c3ccc4c(c3)OCO4)OC(=O)C(=O)N1CC2 (stereo not shown): 7.15%

Set 4
Target: Death-associated protein kinase 2 (DAPK2, Homo sapiens, UniProt Q9UIK4)
Sequence of UniProt Q9UIK4 (whole entry, looked up): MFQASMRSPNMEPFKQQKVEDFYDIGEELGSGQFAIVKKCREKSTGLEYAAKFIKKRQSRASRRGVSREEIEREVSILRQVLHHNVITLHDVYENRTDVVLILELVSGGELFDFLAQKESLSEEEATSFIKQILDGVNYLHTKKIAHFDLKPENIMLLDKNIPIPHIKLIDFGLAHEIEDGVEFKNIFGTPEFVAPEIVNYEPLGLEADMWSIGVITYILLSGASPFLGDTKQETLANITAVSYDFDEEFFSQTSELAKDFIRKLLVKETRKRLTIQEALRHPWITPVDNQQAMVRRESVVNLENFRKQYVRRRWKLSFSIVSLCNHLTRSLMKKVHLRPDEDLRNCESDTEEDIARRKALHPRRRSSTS
Effect on: enzyme activity
Mode: inhibitor
Tested at: 0.5 µM
Relative to: control
Measurement: remaining activity
Cn1c2ccccc2c2c3c(c4c5ccccc5n(CCC#N)c4c21)CNC3=O: 84.4%
O=C(Nc1cccc(Nc2cc(Nc3cccc(C(F)(F)F)c3)ncn2)c1)C1CC1: 99%
N#CC(C#N)=C(N)/C(C#N)=C/c1ccc(O)cc1: 95.7%
Oc1ccc(-c2nc(-c3ccncc3)c(-c3ccc(F)cc3)[nH]2)cc1: 96.8%
Nc1ncnc2n[nH]c(Nc3ccc(F)cc3)c12: 85.5%
O=C(O)c1ccc2c3c1cccc3c(=O)n1c3ccccc3nc21: 91.9%
Cc1ccc(NC(=O)c2ccc(CN3CCN(C)CC3)cc2)cc1Nc1nc(-c2cccnc2)cs1: 104%
COc1ccc(C(=O)Nc2sc3c(c2C(N)=O)CCCC3)cc1OC: 106%
COc1cc2nccc(Oc3ccc(NC(=S)NC(=O)c4ccccc4C)cc3)c2cc1OC: 78.7%
CN(C)c1ccc(C=C2C(=O)Nc3ccccc32)cc1: 105%
O=c1c2ccccc2[nH]c(=S)n1CCN1CCC(=C(c2ccc(F)cc2)c2ccc(F)cc2)CC1: 104%
C#Cc1cccc(Nc2ncnc3cc(OCCOC)c(OCCOC)cc23)c1: 92.5%
Nc1ccc2ncnc(NCCc3ccc(Oc4ccccc4)cc3)c2c1: 80.4%
COc1ccc(OC)c2c(=S)c3ccccc3[nH]c12: 94%
Cc1nc(-c2ccccc2)c(-c2ccncc2)o1: 106%
OCC(O)CCON=C1C(c2c(O)[nH]c3ccccc23)=Nc2ccccc21 (stereo not shown): 104%

Some of these lines once more (set 2):
CDK15 (Homo sapiens, UniProt Q96Q40): 100%
BMPR1A (Homo sapiens, UniProt P36894): 100%
CLK2 (Homo sapiens, UniProt P49760): 100%
MAPK7 (Homo sapiens, UniProt Q13164): 100%
